Results pooled from the literature.
A part holds a random share of what one study measured. Changes are numbered by the printed parent chain.

Set 1
Target: CCNB2, cyclin fold, Cln2 fusion (human)
Technique: yeast growth competition, sequencing
Sample: yeast
Setting: weak parent motif
Baseline: not given
Reading: higher = stronger binding
Parent: ORC1 docking peptide (human); PRARKRLELGNLG
Variant | normalised enrichment score
PRARLRLELGNLG [K5L] | 0.2
PRARKRFELGNLG [L7F] | 0.0852
PRARKRLELGNLY [G13Y] | -0.35

Set 2
Target: Fragile X messenger ribonucleoprotein 1, C-terminal low-complexity region (Fmr1, Mus musculus, UniProt P35922)
Technique: RNA Bind-n-Seq
Molecule type: RNA
Sample: in vitro
Tested at: 200 nM
Setting: whole 134-nt RNA, ends assumed
With: 150 mM KCl
Baseline: input library
Reading: higher = stronger binding
Strand | log2 enrichment
GGGAGUUCUACAGUCCGACGAUCUGGCCCUGGUGGCAUGCGGGGAGGAAGAGGUGGCAUCAUGGAUCGUGGUGGUCCCGGUGGAAUGUUCAGAGGUGGCCGUGGUGGAGACAGUGGAAUUCUCGGGUGUCAAGG | 0.816
GGGAGUUCUACAGUCCGACGAUCUGGGAGGUGGAUUUUGUUUAUUUUUUUAGCUCAUUACCAGGGGUGGGAAUUUUUUUUUAAUAUGUGUCAUGAAUAAAGUUGUUUUUGAAAUGGAAUUCUCGGGUGUCAAGG | 0.152
GGGAGUUCUACAGUCCGACGAUCGCAGGAAGUAAAAACAAAUGGAAAUGCUUCGGAUAGUGGCAGGGGUGGGGGUUGCUAAGGAAAGAAAGGGAUGGGAGUGGGUAAAGAGUUUGGAAUUCUCGGGUGUCAAGG | 0.0259
GGGAGUUCUACAGUCCGACGAUCUGGCCCUGGUGGCAUGCGGGGAGGAAGAGGUGGACUCAUGGAUCGUGGUGGUCCCGGUGGAAUGUUCAGAGGUGGCCGUGGUGGAGACAGUGGAAUUCUCGGGUGUCAAGG | 0.227

Set 3
Target: RNA binding protein fox-1 homolog 2, RRM domain, GST-SBP tag (RBFOX2, Homo sapiens, UniProt O43251-10, residues 100-194)
Technique: RNA Bind-n-Seq
Molecule type: RNA
Sample: in vitro
Tested at: 365 nM
Setting: natural RNA segment, single round, ends assumed
Baseline: no-protein control
Reading: higher = stronger binding
All sequences stand within: GGGAGUUCUACAGUCCGACGAUC … UGGAAUUCUCGGGUGCCAA
Construct (chain): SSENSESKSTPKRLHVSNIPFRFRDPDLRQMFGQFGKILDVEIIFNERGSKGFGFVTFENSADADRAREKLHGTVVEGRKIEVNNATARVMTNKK
Strand | RBNS enrichment (R)
UGACGAGAGAGCUUUAGAAUUUAAUAAAAUGUCAAAAAUACAAUUUGAUACCCUUAAAAAUUAUUCAUAGAUCUGGCUGCUCUGUACUACUGGAUGGGUGGAAUAGGGAA | 0.777
CUUUUCCUCUUAAUACUCAGCUCUCAACACAGGCGGGUGGGCAGAGGAAGAUACCAUUCAGGAACCUGGACCAGAGGUGGUAAUAAAAGGGCUGGGUCAUUGGGCCUGCA | 2.68
GAAGCUGGGUCUGUAAGGAUUCACACAAUGGCAAGACUGAGGAUUUAUACUGAAUUGUCAUCAAUCAGUCCUACCAGAUGGAUUUCAACAUUUAAACCUGGAGACUCUUC | 0.183
CUUCCUCUAGAAUGUUCAUUUUAUGAGAUCGCUAUCUGUAAGUCCAGUUGGAUUACAGGAAUACUUGAAAGUUACUUUCUACCACUAUUAGAAAAUAUGAAGUCGCAUGC | 1.6
GUGCUUGGAAGCCUGUUGACUGUGCUUAAGGUUAGGCAUUUAGGAAGCACACUGCUUUUUAAACGACCACAGAAAGAAAGGACAAUUGUAAGAAGUAAAAACUUAUUUGG | 0.458

Mixed results
Substance | target | assay | test system | setting | how to read | measurement | result
PhoQ, residues 284 288 289 292 302 303 SVHLDV | PhoP, residues 12 14 15 18 19 NMSFL (Escherichia coli, UniProt P23836) | Sort-seq, refers to: YFP reporter | E. coli | PhoQ-PhoP variant library, with: 10 µM Mg2+ | baseline: high Mg2+ state, higher = stronger signaling | fold induction | 22

Excerpt of the above (set 3):
Strand | RBNS enrichment (R)
GUGCUUGGAAGCCUGUUGACUGUGCUUAAGGUUAGGCAUUUAGGAAGCACACUGCUUUUUAAACGACCACAGAAAGAAAGGACAAUUGUAAGAAGUAAAAACUUAUUUGG | 0.458
